Assay results gathered from unrelated publications.
Each line is one published result; not all experiments were run side by side. ± marks the error that the study gave.

Compound | method | sample | time | pH | temperature | setting | solubility
O=C(Nc1cccc(C(=O)N2CCC(c3nc(-c4ccccc4)n[nH]3)CC2)c1)c1ccccc1 | LC-MS | DPBS | 18 h |  |  |  | 25.6 ± 0.2 µM
O=C1Nc2ccc(I)cc2C1=Cc1cc(Br)cc(Br)c1O | AlphaScreen buffer | aqueous buffer, 7.5% DMSO |  | pH 7.3 |  |  | 96.6 ± 10 µM
C#CCN(C(=O)OCc1ccc(F)cc1)[c-]1cccc1.[Fe+2].c1cc[cH-]c1 | absorbance | PBS |  | pH 7.4 |  | 1% DMSO | 34 ± 5 µM
Cn1ccc([C@H](CCO)Nc2nc(N3CCOCC3)c3cc(-c4ccccc4)sc3n2)n1 |  |  |  |  |  |  | 150 µM
Cc1cccc(Oc2ccc(-n3c(=O)[nH]c4cccnc43)cn2)c1C |  | simulated gastric fluid |  | pH 2 |  |  | 7 µM
OC[C@H]1O[C@@H](n2cnc3c(SCc4ccccc4)nc(Cl)nc32)C[C@@H]1O | UV absorbance | culture medium |  |  |  | stock diluted to 0.05 mM | 21.6 µM
CC(C)(C)NC(=O)c1ccccc1 |  | PBS |  | pH 7.4 | 25 °C | 2% DMSO | 312 µM
O=C1Nc2ccc(I)cc2C1=Cc1ccccc1 | AlphaScreen buffer | aqueous buffer, 7.5% DMSO |  | pH 7.3 |  |  | 39.4 ± 2.3 µM
NS(=O)(=O)c1ccc(N/N=C2\C(=O)Nc3ccc(C(=O)NCCc4c[nH]cn4)cc32)cc1 |  | aqueous buffer |  | pH 7.4 |  |  | < 1.62 µg/mL
O=C(Nc1ccccc1)C1(C(F)(F)F)CCC1 |  | PBS |  | pH 7.4 | 25 °C | 2% DMSO | 399 µM
CN(C)S(=O)(=O)c1ccc(S(=O)(=O)N2CCC(n3c(=O)[nH]c4ccccc43)CC2)cc1 | HPLC | Tween 80 | 24 h |  | 20 °C |  | 90 µg/mL
O=C(Nc1cc(-c2ccnc3[nH]ccc23)c(Cl)cn1)[C@H]1CCC[C@@H](NC(=O)C(F)(F)F)C1 | kinetic solubility | FaSSGF |  | pH 1.2 |  |  | 451 µM
C#CCN(C(=O)OCc1ccc(C(=O)N(C)C)cc1)[c-]1cccc1.[Fe+2].c1cc[cH-]c1 | absorbance | PBS |  | pH 7.4 |  | 1% DMSO | 117 ± 3 µM
CCC1(CC)CC(=O)N(C2CCOc3ccc(C(=O)NC4CC(C)(C)Oc5ccccc54)cc32)C(=N)N1 (stereo not shown) |  | simulated gastric fluid |  | pH 2 |  |  | ≥ 100 µM
O=C(OCc1ccc(F)cc1)N(Cc1cccc(CN2CCCCC2)c1)[c-]1cccc1.[Fe+2].c1cc[cH-]c1 | absorbance | PBS |  | pH 7.4 |  | 1% DMSO | 26 ± 2 µM
CSCc1cn(-c2cccc(C(=O)N3CCC(c4nc(-c5ccccc5)n[nH]4)CC3)c2)nn1 | LC-MS | DPBS | 18 h |  |  |  | 64.2 ± 2.9 µM
Cc1ccc2c(c1)NC(=O)C2=Cc1cc(Br)c(O)c(Br)c1 | AlphaScreen buffer | aqueous buffer, 7.5% DMSO |  | pH 7.3 |  |  | 342 ± 29 µM
CCCCCCC1CCC/C1=N\NC(N)=S (stereo not shown) |  | PBS |  | pH 7.4 | 23 °C | 1% DMSO | 1.3 µM
O=C1Nc2ccc(I)cc2C1=Cc1ccc[nH]1 | AlphaScreen buffer | aqueous buffer, 7.5% DMSO |  | pH 7.3 |  |  | 2.9 ± 0.8 µM
O=C(NNCc1ccccc1)C1(C(F)(F)F)CCC1 |  | PBS | 2 h | pH 7.4 | 25 °C |  | 371 µM
Cc1cc(C(=O)N[C@@H](CC(=O)NC(C)(C)C)C(=O)NCCNC(=O)c2cccc(-n3cccn3)c2)no1 |  | aqueous buffer |  | pH 7.4 |  |  | > 110 µg/mL
CC1CCC2C(C)C(OC(=O)CCC(=O)OCCOC(=O)N3CCC(Nc4ccc(S(=O)(=O)NC(=O)c5ccc(N6CCN(CC7=C(c8ccc(Cl)cc8)CC(C)(C)CC7)CC6)cc5Oc5cnc6[nH]ccc6c5)cc4[N+](=O)[O-])CC3)OC3OC4(C)CCC1C32OO4 (stereo not shown) |  |  |  |  |  |  | 2.32 µg/mL

Compound | method | sample | time | pH | temperature | setting | solubility
O=c1c2ccccc2[se]n1CCCCCCn1[se]c2ccccc2c1=O | shake-flask, RP-HPLC | acetonitrile | 24 h |  | 25 °C |  | 420 ± 5 µg/mL
CC1(C)OCCc2cc(C(=O)N3CCC(c4nc(-c5ccccc5)n[nH]4)CC3)ccc21 | UV | DPBS | 18 h |  | room temperature |  | 76.5 ± 2.1 µM
O=C(N[c-]1cccc1)OCc1ccc(F)cc1.[Fe+2].c1cc[cH-]c1 | absorbance | RPMI medium with 5% FBS |  |  |  | 1% DMSO | 121 ± 5 µM
CC(C)N(Cc1ccccc1)C(=O)C1(C(F)(F)F)CCC1 |  | PBS | 2 h | pH 7.4 | 25 °C |  | 233 µM
O=C(Nc1ccc2ccccc2c1)C1CC2(CO1)CC(F)(F)C2 (stereo not shown) | kinetic solubility | PBS with 2% DMSO | 2 h | pH 7.4 | 25 °C | mean of incubations | 34 µM
CC(C)(C)C(=O)Nc1ccccc1 |  | PBS |  | pH 7.4 | 25 °C | 2% DMSO | 454 µM
O=C(Nc1ccc2ccccc2c1)C1CC2(CCC2)CO1 (stereo not shown) | kinetic solubility | PBS with 2% DMSO | 2 h | pH 7.4 | 25 °C | single incubation | 118 µM
CCCCCCCC/C=C/CCCCCCCC(=O)[O][Pt-2]1([OH])([Cl])([NH+]=C(CC)N(C)CCNc2c3ccccc3[nH+]c3ccccc23)[NH2+]CCC[NH2+]1.O=[N+]([O-])[O-].O=[N+]([O-])[O-] |  | buffer |  | pH 7.0 to 7.4 |  |  | ~10 µM
O=C(NO)c1ccc(/N=N/c2ccccc2)cc1 |  | water with 5% DMSO |  |  |  |  | ~100 µM
O=C(NC1(C(F)(F)F)CCC1)c1ccccc1 |  | PBS | 2 h | pH 7.4 | 25 °C | 2% DMSO | 333 µM
Cn1cnnc1C1CCN(c2ncccc2-c2cccnc2)CC1 |  | ammonium acetate buffer, DMSO | 24 h | pH 7.4 |  | 50 mM buffer, 2.5% DMSO | 234 µM
CC1(C)C(=CC=C2CCCC(C=CC3=[N+](CCC[N+](C)(C)C)c4ccc(S(=O)(=O)O)cc4C3(C)C)=C2SCCOCCOCCC(=O)O)N(CCC[N+](C)(C)C)c2ccc(S(=O)(=O)O)cc21 |  | PBS |  | pH 7.4 |  |  | 79000 µg/mL
O=C(Nc1ccc2ccccc2c1)C1CC2(C1)CC(F)(F)C2 | kinetic solubility | PBS with 2% DMSO | 2 h | pH 7.4 | 25 °C | single incubation | 9 µM
CC(C)C(C)NC(=O)COC(=O)c1cc2c(s1)CCC2 (stereo not shown) |  | PBS 1% DMSO | 10 min |  |  |  | 75.4 µM
CC(=O)O[C@H]1C(=O)[C@@]2(C)[C@H]([C@H](OC(=O)c3ccccc3)[C@]3(O)C[C@H](OC(=O)[C@H](OCOP(=O)(O)O)[C@@H](NC(=O)c4ccccc4)c4ccccc4)C(C)=C1C3(C)C)[C@]1(OC(C)=O)CO[C@@H]1C[C@@H]2O | HPLC, saturated solution | simulated gastric fluid | 30 s | pH 1.2 |  |  | 24 µg/mL
FC(F)(F)C1(c2ccc(CN3CCN(C(c4ccccc4)c4ccc(Cl)cc4)CC3)cc2)CC1 (stereo not shown) |  | PBS | 2 h | pH 7.4 | 25 °C | 2% DMSO | 2 µM
O=C(Nc1ccc2ccccc2c1)C1CC2(CC2)C1 | kinetic solubility | PBS with 2% DMSO | 2 h | pH 7.4 | 25 °C | mean of incubations | 3 µM
CC(C)N(Cc1ccccc1)C(=O)C1(C(F)(F)F)CC1 |  | PBS |  | pH 7.4 | 25 °C | 2% DMSO | 276 µM
COc1ccc(C=C2C(=O)Nc3ccc(I)cc32)cc1 | AlphaScreen buffer | aqueous buffer, 7.5% DMSO |  | pH 7.3 |  |  | 19.3 ± 4.2 µM
O=C(N[c-]1cccc1)OCc1ccc(C(=O)O)cc1.[Fe+2].c1cc[cH-]c1 | absorbance | PBS |  | pH 7.4 |  | 1% DMSO | > 200 µM
Cc1cc(C(=O)N[C@@H](CC(=O)NC(C)(C)C)C(=O)NCCNC(=O)c2cc(-c3ccccc3)ccn2)no1 |  | aqueous buffer |  | pH 7.4 |  |  | 72 µg/mL

Some of these lines once more:
Compound | method | sample | time | pH | temperature | setting | solubility
O=C(Nc1cccc(C(=O)N2CCC(c3nc(-c4ccccc4)n[nH]3)CC2)c1)c1ccccc1 | LC-MS | DPBS | 18 h |  |  |  | 25.6 ± 0.2 µM
O=C(N[c-]1cccc1)OCc1ccc(F)cc1.[Fe+2].c1cc[cH-]c1 | absorbance | RPMI medium with 5% FBS |  |  |  | 1% DMSO | 121 ± 5 µM
FC(F)(F)C1(c2ccc(CN3CCN(C(c4ccccc4)c4ccc(Cl)cc4)CC3)cc2)CC1 (stereo not shown) |  | PBS | 2 h | pH 7.4 | 25 °C | 2% DMSO | 2 µM
O=C1Nc2ccc(I)cc2C1=Cc1cc(Br)cc(Br)c1O | AlphaScreen buffer | aqueous buffer, 7.5% DMSO |  | pH 7.3 |  |  | 96.6 ± 10 µM
O=C(NNCc1ccccc1)C1(C(F)(F)F)CCC1 |  | PBS | 2 h | pH 7.4 | 25 °C |  | 371 µM
CCCCCCC1CCC/C1=N\NC(N)=S (stereo not shown) |  | PBS |  | pH 7.4 | 23 °C | 1% DMSO | 1.3 µM
OC[C@H]1O[C@@H](n2cnc3c(SCc4ccccc4)nc(Cl)nc32)C[C@@H]1O | UV absorbance | culture medium |  |  |  | stock diluted to 0.05 mM | 21.6 µM
